Published values collected from several papers.
Protocols differ between the studies behind these lines. Several values in a cell are separate wells, animals, samples, runs or records.
Target: Ephrin type-B receptor 2 (EPHB2, Homo sapiens, UniProt P29323)

`NC(=O)[C@@H](O)C[C@H]1CCc2sc3ncnc(O[C@H]4CC[C@H](N5CCOCC5)CC4)c3c21` gave an inhibition of 17% (enzyme activity, inhibitor; 10 µM).
With `COc1c(OCCCN2CCOCC2)ccc2c1N=C(NC(=O)c1cnc(N)nc1)N1CCN=C21` the remaining activity was 104% (kinase activity, inhibitor; 1 µM; reference: untreated control).
With `C=CC(=O)N1CCc2ccc(-n3c(=O)ccc4cnc5ccc(-c6cnn(C)c6)cc5c43)cc21` the remaining binding was 100% (KINOMEscan; 1 µM; reference: DMSO control).
The inhibition of `CCn1cc(C(=O)O)c(=O)c2c(N)c(F)c(NC3CCCCC3)cc21` is reported as 1.5% (kinase activity; 0.1 µM, together with: ATP at Km).
`C=CC(=O)N1Cc2nc(-c3cc(-c4cc(Cl)cnc4Cl)c(F)cc3F)n(-c3ccncn3)c2C1` gave an inhibition of 7.8% (cell-free assay; 1 µM).
With `CCN1CCN(Cc2ccc(NC(=O)c3ccc(C)c(NC(=O)c4cncc(-c5cccs5)c4)c3)cc2C(F)(F)F)CC1` the remaining binding was 3.8% (binding, competition with immobilised ligand; 1 µM).
`Nc1ncc2c(n1)-c1c([nH]c3ccc(C4=CCOCC4)cc13)CCC2` has a remaining binding of 100% (binding, competition with immobilised ligand; 1 µM).
The remaining binding of `Cc1cnc2nc1Nc1cccc(c1)COC/C=C/COCc1cc(ccc1OCCN1CCOCC1)N2` is reported as 100% (binding; 0.1 µM).
`CNC(=O)C1CCN(c2cc(C)c(F)cc2NC(=O)c2ccc(-c3cc(O)ccc3C)c(C)c2)CC1` gave a remaining binding of 0.2% (binding, competition with immobilised ligand; 1 µM).
Under “activity vs control”, `CNC(=O)C[C@H](Cc1ccc(C#N)cc1)NC(=O)c1cc(-c2ccc(CN[C@H](C)c3ccc(C)cc3)o2)ccc1Cl` is recorded as 108% (enzyme activity, inhibitor; 1 µM).
For `COCC12C(=O)NC3C4(C(OC)CC1O)C1CC5(O)C(OC)C(O)C(OC(C)=O)(C1C5OC(=O)c1ccccc1)C3(O)C(OC)C24` (stereo not drawn), the remaining activity was 99% and 94% (kinase activity, inhibitor, ProQinase kinase profiling; 25 µM; reference: control).
The inhibition of `Cc1cccc(O[C@H]2CCC[C@@H](C(C)CNCc3ccncc3)C2)c1` (relative stereo) is reported as -6% (kinase activity, kinome panel screening; 1 µM).
With `O=C=[N][Ru-4]123([n]4c5ccc(O)cc5c5c6c(c7cc(F)c[n+]1c7c54)C(=O)NC6=O)[S+]1CC[S+]2CC[S+]3CC1` (stereo not drawn) the remaining activity was 116% (enzyme activity; 100 nM, human enzyme, together with: 10 µM ATP; reference: untreated).
`CN1CCN(Cc2ccc(-c3ccc(CO[C@H]4CCC[C@@H]4NC(=O)c4cc(-c5cnn(C)c5)cnc4N)cc3)cc2)CC1` gave an inhibition of 3% (enzyme activity, inhibitor; 0.1 µM).
The inhibition of `C=CC(=O)Nc1cccc(-c2cnc3[nH]cc(C(=O)NC(C)(C)C)c3n2)c1` is reported as -3% (enzyme activity, inhibitor; 0.1 µM).

Excerpt of the above:
With `O=C=[N][Ru-4]123([n]4c5ccc(O)cc5c5c6c(c7cc(F)c[n+]1c7c54)C(=O)NC6=O)[S+]1CC[S+]2CC[S+]3CC1` (stereo not drawn) the remaining activity was 116% (enzyme activity; 100 nM, human enzyme, together with: 10 µM ATP; reference: untreated).
For `COCC12C(=O)NC3C4(C(OC)CC1O)C1CC5(O)C(OC)C(O)C(OC(C)=O)(C1C5OC(=O)c1ccccc1)C3(O)C(OC)C24` (stereo not drawn), the remaining activity was 99% and 94% (kinase activity, inhibitor, ProQinase kinase profiling; 25 µM; reference: control).
